Results of several laboratories.
Lines come from different studies, so protocols differ. “And” joins repeats or separate records; there may be more than shown.
Organism: Trypanosoma brucei
Read-out: parasite growth

`CC(C)COC(=O)c1ccc2c(c1)/C(=C/Nc1ccc(S(N)(=O)=O)cc1)C(=O)N2` gave an EC50 of 251 nM.
`c1cc(-c2ccc3ncnc(Nc4ncco4)c3c2)cc(N2CC3(COC3)C2)c1` gave a GI50 of 870 nM (SYBR Green; 48 h).
`Cc1cc(C)c(C#N)c(SCC(=O)c2ccc(Cl)cc2Cl)n1` has an EC50 of 28600 nM (resazurin; RHODESIENSE).
`CCOC(=O)c1cnc2c([N+](=O)[O-])cc(C(F)(F)F)cc2c1NCc1ccc(F)cc1` has an EC50 of 2200 nM and 2000 nM (resazurin; 72 h).
`COc1cc(C)c(NC(=O)CN(C)C)cc1Nc1nc(Nc2cccc(F)c2C(N)=O)c2cc[nH]c2n1` gave an EC50 of 1580 nM.
`CN1CCN(c2cccc(-c3ccc4ncnc(Nc5ccc(Cl)c(C(F)(F)F)c5)c4c3)c2)CC1` gave a GI50 of 310 nM (SYBR Green).
`Cc1cc(C)c(C(N)=O)c(SCC(=O)c2ccc(F)cc2)n1` gave an EC50 of 45000 nM (resazurin).
`C[C@@H]1CN(c2cccc(-c3ccc4ncnc(Nc5ncco5)c4c3)c2)C[C@H](C)O1` has a GI50 of 320 nM (SYBR Green; 48 h).
With `CCc1ccc(Oc2nccc(-c3c(-c4ccc(F)cc4)ncn3C3CCNCC3)n2)cc1` the EC50 was 2000 nM.
The GI50 of `CN1CCN(c2cccc(-c3ccc4ncnc(Nc5ccc([N+](=O)[O-])c(C(F)(F)F)c5)c4c3)c2)CC1` is reported as 31 nM (SYBR Green; 48 h).
`CC(=O)Oc1ccccc1C(=O)CSc1nc(C)cc(C)c1C#N` gave an EC50 of 30100 nM (resazurin).
`Cc1ccc(Nc2ncnc3ccc(-c4cccc(N5CCOCC5)c4)cc23)cc1` has a GI50 of 480 nM (SYBR Green; 48 h).
`COc1cc2ncn(-c3cc(O[C@H](C)c4ccccc4Cl)c(C(N)=O)s3)c2cc1OC` gave an EC50 of 251 nM.
For `Cc1cc(C)nc(SCC(=O)c2cccs2)n1`, the EC50 was greater than 64000 nM (resazurin; RHODESIENSE).
With `Cc1cnc(CNC(=O)c2c(=O)c3ccc(N4CCCN(C)CC4)nc3n3c2sc2ccccc23)cn1` the EC90 was 190 nM (resazurin).
With `CN1CCN(Cc2ccc(-c3cc4ncnc(Nc5ccc(OCc6cccc(F)c6)c(Cl)c5)c4s3)o2)CC1` the EC50 was 2000 nM.
`Clc1ccc(Nc2ncnc3ccc(-c4cccc(N5CCOCC5)c4)cc23)cc1` has a GI50 of 110 nM (SYBR Green; 48 h).
`C[n+]1cc(NC(=O)c2ccc3ccc4ccc(C(=O)Nc5cc6ccccc6[n+](C)c5)nc4c3n2)cc2ccccc21` gave an EC50 of 360 nM (resazurin).
For `CNc1ccnc(SCC(=O)c2ccccc2)c1C#N`, the EC50 was greater than 64000 nM (resazurin).
`Nc1nc(NCCNc2ncc(-c3ncc[nH]3)c(-c3ccc(Cl)cc3Cl)n2)ccc1[N+](=O)[O-]` gave an EC50 of greater than 3000 nM.
`Cc1cc(C)c(C#N)c(SCC(=O)c2ccc(F)cc2)n1` gave an EC50 of 36200 nM (resazurin; RHODESIENSE).
For `CN(C)CCNC(=O)c1cccn2c(=O)c3cc4ccccc4cc3nc12`, the EC50 was 110 nM (resazurin).
The GI50 of `C[C@@H]1COCCN1c1cccc(-c2ccc3ncnc(Nc4ncco4)c3c2)c1` is reported as 190 nM (SYBR Green; 48 h).
With `COc1cc(C)c(C#N)c(SCC(=O)c2ccccc2)n1` the EC50 was 34900 nM (resazurin).
`C[C@@H](Oc1cc(-n2cnc3ccc(OC4CCN(C)CC4)cc32)sc1C(N)=O)c1ccccc1Cl` gave an EC50 of 79.4 nM.
For `Cc1cc(C)c(C#N)c(SCC(=O)c2ccsc2)n1`, the EC50 was greater than 64000 nM (resazurin; RHODESIENSE).
With `CN1CCC(n2cnc(-c3ccc(F)cc3)c2-c2ccnc(N)n2)CC1` the EC50 was 1000 nM.
